Results collected from several papers.
Parts stem from different laboratories: compare values within a part only. “And” joins repeats or separate records; there may be more than shown.
Sequence of UniProt Q9UK32 (whole entry, looked up): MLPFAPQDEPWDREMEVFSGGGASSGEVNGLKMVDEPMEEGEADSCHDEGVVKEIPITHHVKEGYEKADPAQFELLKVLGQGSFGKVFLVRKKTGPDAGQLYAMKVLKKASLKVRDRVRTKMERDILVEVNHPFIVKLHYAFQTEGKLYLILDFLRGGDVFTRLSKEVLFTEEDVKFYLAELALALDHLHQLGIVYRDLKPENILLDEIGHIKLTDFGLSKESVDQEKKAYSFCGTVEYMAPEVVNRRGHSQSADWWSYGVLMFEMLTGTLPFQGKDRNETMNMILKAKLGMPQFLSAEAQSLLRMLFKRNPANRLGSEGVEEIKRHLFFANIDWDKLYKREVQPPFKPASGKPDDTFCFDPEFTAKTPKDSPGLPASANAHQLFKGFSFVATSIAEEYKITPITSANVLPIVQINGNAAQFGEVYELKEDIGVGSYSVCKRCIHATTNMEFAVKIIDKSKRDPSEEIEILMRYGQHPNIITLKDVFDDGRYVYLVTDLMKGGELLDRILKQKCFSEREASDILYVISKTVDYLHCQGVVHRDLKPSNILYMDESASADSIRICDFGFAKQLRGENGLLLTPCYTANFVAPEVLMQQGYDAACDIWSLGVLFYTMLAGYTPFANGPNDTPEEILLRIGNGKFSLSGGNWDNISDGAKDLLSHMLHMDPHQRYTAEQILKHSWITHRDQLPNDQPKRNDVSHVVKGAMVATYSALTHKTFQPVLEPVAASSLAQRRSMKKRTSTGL
Sequence of UniProt P10721 (whole entry, unmodified, looked up): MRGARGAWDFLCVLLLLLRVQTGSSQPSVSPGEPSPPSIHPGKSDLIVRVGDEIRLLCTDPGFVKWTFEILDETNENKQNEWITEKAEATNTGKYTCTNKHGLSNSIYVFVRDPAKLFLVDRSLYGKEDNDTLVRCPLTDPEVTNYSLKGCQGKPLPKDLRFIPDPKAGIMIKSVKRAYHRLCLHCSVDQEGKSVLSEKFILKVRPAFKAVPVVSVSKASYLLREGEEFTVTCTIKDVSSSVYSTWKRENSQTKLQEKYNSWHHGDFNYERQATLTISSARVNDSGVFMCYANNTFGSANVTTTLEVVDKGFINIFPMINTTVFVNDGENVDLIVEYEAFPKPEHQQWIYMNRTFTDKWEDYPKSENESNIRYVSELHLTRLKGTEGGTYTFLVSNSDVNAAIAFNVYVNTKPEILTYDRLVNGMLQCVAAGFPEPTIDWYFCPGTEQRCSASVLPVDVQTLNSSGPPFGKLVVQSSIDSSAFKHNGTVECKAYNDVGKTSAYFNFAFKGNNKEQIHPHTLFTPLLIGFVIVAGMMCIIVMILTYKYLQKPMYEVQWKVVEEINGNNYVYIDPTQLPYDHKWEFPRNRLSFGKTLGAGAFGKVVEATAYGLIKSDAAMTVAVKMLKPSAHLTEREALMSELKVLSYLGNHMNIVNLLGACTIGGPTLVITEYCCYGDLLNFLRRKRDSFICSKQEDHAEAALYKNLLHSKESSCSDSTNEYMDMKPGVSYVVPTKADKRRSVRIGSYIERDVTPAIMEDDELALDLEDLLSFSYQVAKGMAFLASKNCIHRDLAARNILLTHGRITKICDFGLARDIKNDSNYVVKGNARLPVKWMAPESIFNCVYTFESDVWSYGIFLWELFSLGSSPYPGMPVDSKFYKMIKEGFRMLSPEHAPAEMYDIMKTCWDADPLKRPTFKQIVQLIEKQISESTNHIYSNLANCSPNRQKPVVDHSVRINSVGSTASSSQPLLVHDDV
Sequence of UniProt P00519 (whole entry, looked up): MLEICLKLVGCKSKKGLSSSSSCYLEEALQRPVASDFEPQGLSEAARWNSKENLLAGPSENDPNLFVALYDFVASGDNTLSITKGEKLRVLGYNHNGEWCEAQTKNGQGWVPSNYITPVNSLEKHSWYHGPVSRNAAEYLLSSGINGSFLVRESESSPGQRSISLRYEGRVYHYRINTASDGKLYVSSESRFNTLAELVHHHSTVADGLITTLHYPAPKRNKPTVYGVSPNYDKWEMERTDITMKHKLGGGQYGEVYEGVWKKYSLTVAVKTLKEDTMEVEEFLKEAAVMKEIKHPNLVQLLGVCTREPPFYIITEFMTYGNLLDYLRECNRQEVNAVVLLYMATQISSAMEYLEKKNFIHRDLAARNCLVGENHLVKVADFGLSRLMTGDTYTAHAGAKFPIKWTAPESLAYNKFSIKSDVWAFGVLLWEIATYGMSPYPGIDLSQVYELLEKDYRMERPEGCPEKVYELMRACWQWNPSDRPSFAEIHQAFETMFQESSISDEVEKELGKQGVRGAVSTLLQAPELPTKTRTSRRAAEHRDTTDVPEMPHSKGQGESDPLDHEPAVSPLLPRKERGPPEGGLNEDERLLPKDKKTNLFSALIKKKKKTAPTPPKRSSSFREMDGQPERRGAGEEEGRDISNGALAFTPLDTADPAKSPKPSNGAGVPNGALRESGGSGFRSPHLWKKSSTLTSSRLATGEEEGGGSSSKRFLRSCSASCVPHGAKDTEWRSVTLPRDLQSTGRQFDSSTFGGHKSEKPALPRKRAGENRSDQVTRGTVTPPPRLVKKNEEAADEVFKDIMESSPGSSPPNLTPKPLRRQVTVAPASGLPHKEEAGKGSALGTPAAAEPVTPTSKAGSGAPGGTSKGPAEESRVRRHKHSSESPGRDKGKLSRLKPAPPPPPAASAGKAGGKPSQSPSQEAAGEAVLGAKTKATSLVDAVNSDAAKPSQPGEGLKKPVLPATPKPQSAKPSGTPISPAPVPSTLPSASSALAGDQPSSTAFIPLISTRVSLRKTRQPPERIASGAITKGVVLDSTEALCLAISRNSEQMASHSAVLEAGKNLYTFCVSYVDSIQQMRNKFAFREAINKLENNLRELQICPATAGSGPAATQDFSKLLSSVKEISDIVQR
Sequence of UniProt Q9UPZ9 (whole entry, looked up): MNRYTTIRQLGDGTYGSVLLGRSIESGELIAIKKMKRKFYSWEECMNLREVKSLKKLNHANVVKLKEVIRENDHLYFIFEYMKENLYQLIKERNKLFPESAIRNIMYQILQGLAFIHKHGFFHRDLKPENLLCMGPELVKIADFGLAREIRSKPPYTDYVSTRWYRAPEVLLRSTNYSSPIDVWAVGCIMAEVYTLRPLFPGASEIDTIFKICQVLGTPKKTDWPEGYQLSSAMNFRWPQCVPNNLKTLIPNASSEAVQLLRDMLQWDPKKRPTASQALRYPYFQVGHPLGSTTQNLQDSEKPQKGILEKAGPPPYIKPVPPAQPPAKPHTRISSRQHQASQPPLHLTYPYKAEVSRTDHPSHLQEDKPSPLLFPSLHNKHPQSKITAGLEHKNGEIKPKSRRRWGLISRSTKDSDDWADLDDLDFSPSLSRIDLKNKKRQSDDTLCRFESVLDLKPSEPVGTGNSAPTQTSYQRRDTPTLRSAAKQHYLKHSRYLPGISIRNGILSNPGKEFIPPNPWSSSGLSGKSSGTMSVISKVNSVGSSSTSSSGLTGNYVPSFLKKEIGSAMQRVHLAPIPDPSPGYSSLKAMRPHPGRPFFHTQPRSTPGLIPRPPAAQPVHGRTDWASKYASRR
Sequence of UniProt P51451 (whole entry, looked up): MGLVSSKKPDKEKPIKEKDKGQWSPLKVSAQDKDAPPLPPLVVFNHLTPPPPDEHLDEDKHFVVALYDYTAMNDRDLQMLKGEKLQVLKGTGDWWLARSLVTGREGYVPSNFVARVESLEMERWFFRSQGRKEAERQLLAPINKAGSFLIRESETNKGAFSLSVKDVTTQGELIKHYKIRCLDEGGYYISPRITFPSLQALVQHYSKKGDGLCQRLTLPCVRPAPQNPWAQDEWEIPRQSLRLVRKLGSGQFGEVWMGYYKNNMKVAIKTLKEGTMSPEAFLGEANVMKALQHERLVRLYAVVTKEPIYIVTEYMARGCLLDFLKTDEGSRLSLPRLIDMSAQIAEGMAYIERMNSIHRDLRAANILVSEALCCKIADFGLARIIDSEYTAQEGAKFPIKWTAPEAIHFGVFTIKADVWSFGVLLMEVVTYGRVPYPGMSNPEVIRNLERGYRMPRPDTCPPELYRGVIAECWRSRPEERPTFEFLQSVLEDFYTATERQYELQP
Sequence of UniProt O75676 (whole entry, looked up): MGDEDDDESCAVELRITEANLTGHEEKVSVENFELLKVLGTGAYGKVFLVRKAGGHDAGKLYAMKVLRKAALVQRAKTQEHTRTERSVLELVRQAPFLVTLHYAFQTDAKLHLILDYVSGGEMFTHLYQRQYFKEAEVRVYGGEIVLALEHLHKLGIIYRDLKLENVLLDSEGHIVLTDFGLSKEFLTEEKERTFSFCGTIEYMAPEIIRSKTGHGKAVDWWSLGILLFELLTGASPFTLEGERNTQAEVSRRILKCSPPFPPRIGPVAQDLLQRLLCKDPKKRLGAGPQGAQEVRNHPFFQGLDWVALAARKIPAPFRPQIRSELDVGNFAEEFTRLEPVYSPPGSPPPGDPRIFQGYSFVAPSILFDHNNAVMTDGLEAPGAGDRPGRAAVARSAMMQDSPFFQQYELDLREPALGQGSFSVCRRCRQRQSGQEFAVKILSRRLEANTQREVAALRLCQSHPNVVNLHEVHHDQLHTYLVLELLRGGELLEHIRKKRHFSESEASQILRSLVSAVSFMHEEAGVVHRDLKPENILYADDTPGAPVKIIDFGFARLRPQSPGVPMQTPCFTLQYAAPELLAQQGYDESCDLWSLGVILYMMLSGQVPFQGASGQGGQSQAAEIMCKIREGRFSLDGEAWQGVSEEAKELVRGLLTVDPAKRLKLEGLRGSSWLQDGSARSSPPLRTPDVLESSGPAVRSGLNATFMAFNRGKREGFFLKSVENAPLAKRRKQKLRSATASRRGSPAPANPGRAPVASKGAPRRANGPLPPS
Sequence of UniProt P11802 (whole entry, looked up): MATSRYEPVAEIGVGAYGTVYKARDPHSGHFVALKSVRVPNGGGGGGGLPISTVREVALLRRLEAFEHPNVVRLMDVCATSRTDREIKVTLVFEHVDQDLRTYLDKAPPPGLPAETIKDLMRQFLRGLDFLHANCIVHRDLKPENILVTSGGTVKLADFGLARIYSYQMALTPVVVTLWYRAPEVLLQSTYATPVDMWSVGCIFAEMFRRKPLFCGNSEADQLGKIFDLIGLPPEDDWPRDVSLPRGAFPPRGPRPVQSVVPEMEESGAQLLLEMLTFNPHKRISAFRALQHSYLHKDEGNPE

Study 1 — cell line: mouse MPNST tumor cells; technique: high-content immunofluorescence imaging; refers to: nuclear SOX9; tested at: 10 µM; time: 12 h; setting: mean of 2 replicates; reference: DMSO control; reading: higher = more nuclear SOX9
Structure (SMILES) | nuclear SOX9 intensity
COc1ccc(CNc2nc(N(CCO)CCO)nc3c2ncn3C(C)C)cc1 | 84.3 % of DMSO
CCN(CC)CCNC(=O)c1cc(Br)c(N)cc1OC | 96.7 % of DMSO
CCCOc1ccc(C(=O)OCCN(CC)CC)cc1N | 94.7 % of DMSO
OC(CCN1CCCC1)(c1ccccc1)C1CCCCC1 (stereo not shown) | 132 % of DMSO
CN1CCc2c(c3ccccc3n2Cc2ccccc2)C1 | 158 % of DMSO
CC1(C)CCC(C)(C)c2cc(C(=O)Nc3ccc(C(=O)O)cc3)ccc21 | 118 % of DMSO
CC(C)c1c(NC(=O)Nc2ccc(Cl)cc2)c(=O)n(-c2ccccc2)n1C | 103 % of DMSO
CN(CCOc1ccc(CC2SC(=O)NC2=O)cc1)c1ccccn1 (stereo not shown) | 103 % of DMSO and 95.1 % of DMSO and 96.2 % of DMSO
CC(COc1ccccc1)N(CCCl)Cc1ccccc1 (stereo not shown) | 103 % of DMSO
CC(=O)N(CC(C)C(=O)O)c1c(I)cc(I)c(N)c1I (stereo not shown) | 96.5 % of DMSO

Study 2 — effect on: cell-free assay; technique: competition with immobilised ligand; tested at: 0.1 µM
SMILES: Cc1c[nH]c2nccc(Oc3c(F)cc(Nc4cc(Cl)nc(N)n4)cc3F)c12
target | remaining binding [%]
CSNK1E (Homo sapiens, UniProt P49674) | 64
NIM1K (Homo sapiens, UniProt Q8IY84) | 75
BRSK2 (Homo sapiens, UniProt Q8IWQ3) | 92
MAP3K15 (Homo sapiens, UniProt Q6ZN16) | 94
RET (Homo sapiens, UniProt P07949, V804L) | 100
KIT (Homo sapiens, UniProt P10721, T670I/V559D) | 83
SRPK3 (Homo sapiens, UniProt Q9UPE1) | 100
KIT (Homo sapiens, UniProt P10721, D816V) | 100
PIM1 (Homo sapiens, UniProt P11309) | 100
PLK3 (Homo sapiens, UniProt Q9H4B4) | 83
Ribosomal protein S6 kinase alpha-4, N-terminal kinase domain (RPS6KA4, Homo sapiens, UniProt O75676) | 100
CHUK (Homo sapiens, UniProt O15111) | 66
SBK3 (Homo sapiens, UniProt P0C264) | 87
NUAK1 (Homo sapiens, UniProt O60285) | 91
MAP3K1 (Homo sapiens, UniProt Q13233) | 82
PIM3 (Homo sapiens, UniProt Q86V86) | 100
PRKX (Homo sapiens, UniProt P51817) | 77
CILK1 (Homo sapiens, UniProt Q9UPZ9) | 79
ROCK2 (Homo sapiens, UniProt O75116) | 0.9
eIF-2-alpha kinase GCN2, C-terminal kinase domain (EIF2AK4, Homo sapiens, UniProt Q9P2K8, S808G) | 100
GRK2 (Homo sapiens, UniProt P25098) | 98
Ribosomal protein S6 kinase alpha-6, N-terminal kinase domain (RPS6KA6, Homo sapiens, UniProt Q9UK32) | 95

Study 3 — SMILES: CCOc1cc2ncnc(Nc3cccc(Br)c3)c2cc1OCC; effect on: enzyme activity; mode: inhibitor; tested at: 0.5 µM; reference: control
target | remaining activity [%]
STK16 (Homo sapiens, UniProt O75716) | 98.4
RPS6KA6 (Homo sapiens, UniProt Q9UK32) | 93.3
RPS6KA5 (Homo sapiens, UniProt O75582) | 95.8
AXL (Homo sapiens, UniProt P30530) | 89.9
CAMK2B (Homo sapiens, UniProt Q13554) | 98.8
ABL1 (Homo sapiens, UniProt P00519) | 64.3
Cyclin-dependent kinase 4, with cyclin D3 (CDK4, Homo sapiens, UniProt P11802) | 97.8
MAP4K4 (Homo sapiens, UniProt O95819) | 67
EPHB4 (Homo sapiens, UniProt P54760) | 43
Cyclin-dependent kinase 6, with cyclin D3 (CDK6, Homo sapiens, UniProt Q00534) | 104
HIPK2 (Homo sapiens, UniProt Q9H2X6) | 96.8
PHKG1 (Homo sapiens, UniProt Q16816) | 84.2
TSSK2 (Homo sapiens, UniProt Q96PF2) | 104
STK17A (Homo sapiens, UniProt Q9UEE5) | 98.9
BLK (Homo sapiens, UniProt P51451) | 74.9
Cyclin-dependent kinase 1, with cyclin B (CDK1, Homo sapiens, UniProt P06493) | 80.8
EPHB1 (Homo sapiens, UniProt P54762) | 73.8
SRMS (Homo sapiens, UniProt Q9H3Y6) | 85.7
PDPK1 (Homo sapiens, UniProt O15530) | 96.8
MAPKAPK3 (Homo sapiens, UniProt Q16644) | 87.4
DYRK3 (Homo sapiens, UniProt O43781) | 98.5
WNK3 (Homo sapiens, UniProt Q9BYP7) | 96.5

Study 4 — host: human; sample: microsomes or S9; tested at: 2 µM; time: 0.5 h
Structure (SMILES) | remaining compound [%]
OCCN(Cc1ccccc1)CC(O)COc1c(F)cc(Br)cc1F (stereo not shown) | > 99.9
Cc1occc1C(=O)N1CCC2(CCc3nnc(C(C)C)n3CC2)CC1 | 80.9
Nc1c(-c2nc(-c3cccc(Br)c3)cs2)nnn1-c1ccc(F)cc1F | 36.4
COc1cc(/C=C/C(=O)N2CCC=CC2=O)cc(OC)c1OC | 28.3
Cc1cc(C(C)(C)C)cc(C)c1CS(=O)(=O)CCn1cccn1 | 0.699
O=c1[nH]c(N2CCCC2)nc2ncc3c(c12)CCC3 | 42.7
Clc1ccc2nc(N3CCc4ccccc4C3)sc2c1 | 43.5
CC(C)=CCN1CCN(c2nc3ccccc3s2)CC1CCO (stereo not shown) | 0.0149
O=C1Nc2ccccc2C12Oc1ccccc1C1CC(c3cccnc3)=NN12 (stereo not shown) | 65.5
Cc1sc(NC(=O)NCCC(=O)OC(C)C)c(C#N)c1C | 9.22
Cc1ccccc1-c1nc2ccccc2cc1C(C)n1c(=O)n(-c2ccc(O)c(F)c2)c2cnc(N)nc21 (stereo not shown) | 35.7
Cc1ccc(CN(CCCn2ccnc2)Cc2ccc3ncccc3c2)s1 | 11.4
COc1cc(Br)c(S(=O)(=O)N[C@@H]2CCCN(C(=O)c3ccccc3)C2)cc1OC | 37.5
